Experimental data pooled from the literature.
Lines come from different studies, so protocols differ. Several values in a cell are separate wells, animals, samples, runs or records. ± gives the spread as reported.

The activity score of `O=C(N/N=C/c1ccc([N+](=O)[O-])o1)c1ccc(O)cc1` is reported as 3.2 (human iPSC-derived cardiomyocytes; MyBP-C/MYH ratio, plate-normalised SD score; concentration not given, primary screen; direction not given).
The EC50 of `COc1ncc(-c2cn([C@@H]3O[C@](F)(COC(=O)C(C)C)[C@@H](OC(=O)C(C)C)[C@H]3OC(=O)C(C)C)cn2)c(OC)n1` is reported as 16 µM (Dengue virus; viral replication; Huh-7, DENV-2; 48 h).
The activity score of `C=CCc1ccccc1OCC(O)CNC(C)C` (centres unmarked) is reported as 3.3 (human iPSC-derived cardiomyocytes; MyBP-C/MYH ratio, plate-normalised SD score; concentration not given, primary screen; direction not given).
`CSCCNc1nc(SCCC(F)(F)F)nc2c1ncn2[C@@H]1O[C@H](COP(=O)(O)OP(=O)(O)C(Cl)(Cl)P(=O)(O)O)[C@@H](O)[C@H]1O` — result for “platelet aggregation AUC”: 28.6 ± 15.1 U (ADP-induced platelet aggregation, Multiplate aggregometry; human patients, whole blood; dose not given, 2 h).
`OC(CCN1CCCCC1)(c1ccccc1)C1CC2C=CC1C2` (centres unmarked): “change in EEG Alpha1-power Fz-Cz” -30.8% (resting-state EEG; healthy elderly humans; oral, 4 mg, eyes closed, LS mean; baseline: baseline).
`CCn1cc(-c2cc(Cn3ccnc3)cc3c2CCN([C@H](c2cc(OC)ccn2)C2CC2)C3=O)c(C(F)(F)F)n1` has an EC50 of greater than 30 µM (JHOS2; cell growth; 120 h).
`Oc1ccccc1-c1n[nH]cc1-c1ccnc2ccccc12` — result for “log2 fold change”: 0.79 (MPS1 (Candida albicans); kinase binding, MIB/MS competition; Candida albicans lysate; 10 µM; baseline: DMSO).
For `O=C(/C=C/C=C/C=C/C1CCCCC1)NC1=C[C@@](O)(/C=C/C=C/C=C/C(=O)NC2=C(O)CCC2=O)[C@@H]2O[C@@H]2C1=O`, the GI50 was 15.2 µM (NCI-H650; cell growth, CellTiter-Glo; 78 h).
Under “cells with nuclear SREBP1”, `CC(Nc1nc(N2CCCC2)nc2ccccc12)c1ccccc1` (centres unmarked) is recorded as 87.2% and 88.2% and 81.5% and 85.7% (importin beta-1; SREBP1 nuclear import, high content imaging; HeLa Kyoto; 0.05 µM, 3 h, together with: glucose and MG132).
`COc1nc(N)ncc1-c1cn([C@@H]2O[C@](F)(CO)[C@@H](O)[C@H]2O)cn1` gave an EC50 of greater than 50 µM (Dengue virus; viral replication; Huh-7, DENV-4; 48 h).
`C=CC(C1=CC(=O)C(OC)=CC1=O)c1ccc(O)cc1` (centres unmarked) has an activity score of 3 (human iPSC-derived cardiomyocytes; MyBP-C/MYH ratio, plate-normalised SD score; concentration not given, primary screen; direction not given).
The sarcomere length of `O=C(O)CNC(=O)Cc1ccccc1` is reported as 1.62 µm (ventricular cardiomyocytes, C57BL/6 mouse; dose not given, 0.212 s).
`COc1ncncc1-c1cn([C@@H]2O[C@](F)(CO)[C@@H](O)[C@H]2O)cn1` has an EC50 of greater than 100 µM (Dengue virus; viral replication; Huh-7, DENV-4; 48 h).
For `c1coc(-c2n[nH]cc2-c2ccnc3ccccc23)c1`, “log2 fold change” read -0.22 (KIN3 (Candida albicans); kinase binding, MIB/MS competition; Candida albicans lysate; 1 µM; baseline: DMSO).
For `N#Cc1ccc2c(c1)[C@H]1CCCN(C(=O)c3ccc4[nH]cnc4c3)[C@H]1C2`, “systolic blood pressure change” read -2.7 mmHg (human clinical trial; oral, 240 mg once daily, 28 d).
For `C[C@H]1C[C@H]2CSC(N)=N[C@@]2(c2nc(NC(=O)c3ccc(OC(F)F)cn3)cs2)CO1`, “percent change from baseline” read -87.4% (item: Aβ1-40; healthy adults, plasma; 125 mg once daily, day 4; baseline: placebo).
`CN(C(=O)n1cnc(-c2ccc[n+]([O-])c2)c1)C1CCCCC1` gave an AUC(0-t) of 299 ng·h/mL (item: LEA; human, plasma; 5 mg single dose).
With `COc1cc(/C=C/c2ccc(O)cc2)cc(OC)c1` the activity score was 17.1 (human iPSC-derived cardiomyocytes; MyBP-C/MYH ratio, plate-normalised SD score; concentration not given, primary screen; direction not given).
For `CCS(=O)(=O)c1nc(C2CC2)cc(C(F)(F)F)n1`, “cells with nuclear SREBP1” read 96.1% and 86.9% and 89.2% and 88.6% (importin beta-1; SREBP1 nuclear import, high content imaging; HeLa Kyoto; 0.02 µM, 3 h, together with: glucose and MG132).
The activity score of `COc1c(-c2coc3cc4c(cc3c2=O)CC(O)C(C)(C)O4)ccc2c1C=CC(C)(C)O2` (centres unmarked) is reported as 9.2 (human iPSC-derived cardiomyocytes; MyBP-C/MYH ratio, plate-normalised SD score; concentration not given, primary screen; direction not given).
`COc1cnc2cccc(N3CCc4c(cc(Cn5ccnc5C)cc4-c4cn(C)nc4C(F)(F)F)C3=O)c2c1` has an EC50 of 15.9 µM (COLO 320; cell growth, inhibitor; 120 h).
`[Cl-].[Cl-].[Pt+2].[Ru+2].c1ccc(-c2nc3cc4ccccc4cc3nc2-c2ccccn2)nc1.c1cnc2c(c1)ccc1cccnc12.c1cnc2c(c1)ccc1cccnc12`: “nicked circular DNA” 14% (pcDNA supercoiled plasmid; agarose gel electrophoresis; 50 µM, photoinduced cleavage, together with: 0.1 µM pcDNA).
`CC[S+]([O-])c1nc(-c2ccccc2)cc(C(F)(F)F)n1` (centres unmarked): “cells with nuclear SREBP1” 90.6% and 91.6% and 87.7% and 88.9% (importin beta-1; SREBP1 nuclear import, high content imaging; HeLa Kyoto; 5.01 µM, 3 h, together with: glucose and MG132).
`Nc1ncc(-c2cn([C@@H]3O[C@](F)(CO)[C@@H](O)[C@H]3O)cn2)cn1` gave an EC50 of greater than 100 µM (Dengue virus; viral replication; Huh-7, DENV-4; 48 h).
Under “nicked circular DNA”, `[Cl-].[Cl-].[Pt+2].[Ru+2].c1ccc(-c2nccnc2-c2ccccn2)nc1.c1cnc2c(c1)ccc1cccnc12.c1cnc2c(c1)ccc1cccnc12` is recorded as 18.3% (pcDNA supercoiled plasmid; agarose gel electrophoresis; 10 µM, photoinduced cleavage, together with: 0.1 µM pcDNA).
The growth of `COC(=O)[C@H](Cc1c[nH]c2ccccc12)NCc1cc2ccccc2nc1OC` is reported as 93.7% (Pseudomonas aeruginosa; 16 µg/mL, without pentamidine; baseline: control).
`CC(C)(C)NC[C@H](O)COc1nsnc1N1CCOCC1` has an activity score of 3.4 (human iPSC-derived cardiomyocytes; MyBP-C/MYH ratio, plate-normalised SD score; concentration not given, primary screen; direction not given).
`[Cl-].[Cl-].[Pt+2].[Ru+2].c1ccc(-c2nc3ccccc3nc2-c2ccccn2)nc1.c1cnc2c(c1)ccc1cccnc12.c1cnc2c(c1)ccc1cccnc12`: “nicked circular DNA” 7.4% (pcDNA supercoiled plasmid; agarose gel electrophoresis; 10 µM, photoinduced cleavage, together with: 0.1 µM pcDNA).
`CCCCCCCCCc1ccc(OCCOCCOCCOCCOCCOCCOCCOCCOCCO)cc1` has a MyBP-C level of 19.1% (MYBPC3 iPSC cardiomyocytes; plate-normalised; concentration not given, 24 h, hit retest).
Under “log2 fold change”, `Cn1cc(-c2ccc(-c3cncc(Cl)c3N3CCC4(CCNC4=O)CC3)cc2)cn1` is recorded as 1.77 (COLO 205; gene expression, microarray, item: CALD1 mRNA; concentration not given, 2 h; baseline: untreated cells).
The EC50 of `CCn1cc(-c2cc(Cn3ccoc3=N)cc3c2CCN([C@@H](C)c2cc(OC)ccn2)C3=O)c(C(F)(F)F)n1` is reported as 1.2 µM (NCI-H929; cell growth, inhibitor; 120 h).
`C=C1C(=O)O[C@H]2[C@H]1CC/C(C)=C/CC[C@@]1(C)O[C@@H]21` has an activity score of 8.5 (human iPSC-derived cardiomyocytes; MyBP-C/MYH ratio, plate-normalised SD score; concentration not given, primary screen; direction not given).

A few entries again:
Under “nicked circular DNA”, `[Cl-].[Cl-].[Pt+2].[Ru+2].c1ccc(-c2nccnc2-c2ccccn2)nc1.c1cnc2c(c1)ccc1cccnc12.c1cnc2c(c1)ccc1cccnc12` is recorded as 18.3% (pcDNA supercoiled plasmid; agarose gel electrophoresis; 10 µM, photoinduced cleavage, together with: 0.1 µM pcDNA).
The growth of `COC(=O)[C@H](Cc1c[nH]c2ccccc12)NCc1cc2ccccc2nc1OC` is reported as 93.7% (Pseudomonas aeruginosa; 16 µg/mL, without pentamidine; baseline: control).
